Assay results gathered from unrelated publications.
A part holds a random share of what one study measured.

Sample 1 — method: RNA Bind-n-Seq; form: RNA; matrix: in vitro; concentration: not given; relative to: input RNA pool; direction: higher = stronger binding
Target: RING finger protein unkempt homolog, zinc fingers 1-6, GST-SBP tag (UNK, Homo sapiens, UniProt Q9C0B0, residues 30-357)
Notes: RNA with constant flanks, human and mouse sites, ends assumed
Target sequence (chain): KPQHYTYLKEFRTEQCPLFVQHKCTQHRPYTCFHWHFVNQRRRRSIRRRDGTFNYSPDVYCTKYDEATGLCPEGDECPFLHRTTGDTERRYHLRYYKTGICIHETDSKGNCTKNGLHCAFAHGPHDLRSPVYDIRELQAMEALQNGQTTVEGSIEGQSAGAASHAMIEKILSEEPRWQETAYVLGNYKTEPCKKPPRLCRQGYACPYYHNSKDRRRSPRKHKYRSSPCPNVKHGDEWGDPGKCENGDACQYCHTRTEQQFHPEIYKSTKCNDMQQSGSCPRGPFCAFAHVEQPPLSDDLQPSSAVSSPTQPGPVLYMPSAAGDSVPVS
`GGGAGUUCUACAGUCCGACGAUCAGAUUCCCCCUCCUGAGACCUCCUCCGAAGUUGGAGUCUCUUACAGAUGCCUCAUCCCCUGUUAGCGUUUUAGUUUGGACCACCCAGCCUUGGACAAUUCCCGCCAACCAGGCAAUUUGCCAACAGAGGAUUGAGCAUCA` has a bound/input enrichment of 0.903 ratio.
The bound/input enrichment of `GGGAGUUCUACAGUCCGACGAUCUACGAGCGGGGUGUCGCAGUCUUGUGCACAGAGUAAACUUUUCUAGCUGCCCCUUUCUGUAAUAGUGAAAGUUGGUAUUUAACAUUUAUUCAUUUUUAAAAUAUUUGGAAGGUCUGAGCUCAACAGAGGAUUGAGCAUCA` is reported as 15.9 ratio.
With `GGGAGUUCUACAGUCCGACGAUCAGGAUGGGGUUUGUGAAAGUUGUCAAGAAUAAGGCCUACUUUAAAAGAUACCAAGUGAGAUUUCGAAGGCGGCGAGAGGGUAAAACUGACUACUAUGCUCGAAAACGAUUGGUGAUCCAGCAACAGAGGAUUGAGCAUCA` the bound/input enrichment was 0.222 ratio.
`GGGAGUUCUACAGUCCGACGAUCAAGAGUCCAGUGAUGAUGAUGAUGAGGAGGACCAAAAGAAACAGCCUGUCCAGAAGGGAGUUAAGCCCCAAGCCAAGGCAGCCAAAGCUCCUCCUAAGAAGGCCAAGAGCUCUGAUUCUGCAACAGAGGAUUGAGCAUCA` has a bound/input enrichment of 0.0473 ratio.
`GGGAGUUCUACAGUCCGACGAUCGUAUCUGACUAUGCCCAGAUGGAUCGAGUGCUUCGAGAGGAGAGAGCCUAUAUUUUAAAUUUGGUGAAGCAAAUUAAGAAAACAGGAUGUAAUGUCCUUCUCAUACAGAAGUCUAUCCUGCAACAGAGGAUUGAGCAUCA` has a bound/input enrichment of 0.131 ratio.
The bound/input enrichment of `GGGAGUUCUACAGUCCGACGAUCUGGCAGAUCUUUAAAACUUCAGCAACCAAAGGCACUGGCCUUGAUGAGGCAAUGGAAUGGUUAGUUGAAACCCUGAAAAGCAGACAGUGAGCCCAUUCACGUCAGCGCCUGUGAGCCAACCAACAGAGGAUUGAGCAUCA` is reported as 0.158 ratio.
With `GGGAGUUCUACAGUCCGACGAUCCUGAAGUCUCUGCGGGAACUCAAUGUCCGAAGAAAUUACCUUAAGGUUUUACCACCAGAGCUAGUAGAUCUCCCCUUGGUAAAGUUUGACUUUUCCUGCAACAAGGUGCUGGUGAUCCCCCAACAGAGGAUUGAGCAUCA` the bound/input enrichment was 0.336 ratio.
For `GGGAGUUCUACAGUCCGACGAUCAGAGAAAGAGAGCAUGAGAGGGAGCGAGACAGGCGACCAACACAGAGGAGAGAAAACAAAAAUAGCAAAAAAAAAAAAAAAAAGCAGUUCUUUAUAAUUUAAUAUUCUAUUUUAAUAAAGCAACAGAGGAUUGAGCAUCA`, the bound/input enrichment was 2.69 ratio.

Sample 2 — method: universal PBM; form: double-stranded DNA, one strand shown; matrix: in vitro; concentration: not given; direction: higher = stronger binding
Target: Sal-like protein 4, full length isoform B (SALL4, Homo sapiens, UniProt Q9UJQ4-2, residues 1-616)
Notes: 8-mer, flanks averaged, mean of replicates
Target sequence (chain): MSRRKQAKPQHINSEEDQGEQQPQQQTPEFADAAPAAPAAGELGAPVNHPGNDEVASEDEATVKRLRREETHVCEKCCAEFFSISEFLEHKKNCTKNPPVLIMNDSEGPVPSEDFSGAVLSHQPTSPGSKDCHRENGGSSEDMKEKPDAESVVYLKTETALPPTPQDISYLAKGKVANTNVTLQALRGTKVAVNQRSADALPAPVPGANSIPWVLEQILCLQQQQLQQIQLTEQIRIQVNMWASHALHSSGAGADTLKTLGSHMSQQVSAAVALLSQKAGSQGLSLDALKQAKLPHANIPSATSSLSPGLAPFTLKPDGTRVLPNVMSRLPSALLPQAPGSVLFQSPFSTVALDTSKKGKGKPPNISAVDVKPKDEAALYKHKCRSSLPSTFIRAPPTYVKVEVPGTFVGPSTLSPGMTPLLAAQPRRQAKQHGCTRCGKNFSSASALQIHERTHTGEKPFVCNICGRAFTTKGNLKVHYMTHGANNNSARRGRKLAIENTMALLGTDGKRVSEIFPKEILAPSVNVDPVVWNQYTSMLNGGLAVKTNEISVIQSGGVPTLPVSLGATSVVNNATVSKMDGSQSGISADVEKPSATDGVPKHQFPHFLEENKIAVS
`AAACAACT` gave an E-score of 0.122.
`GCCAGTAA` gave an E-score of -0.0828.
With `TAGATCTA` the E-score was 0.266.
`GACGGCGA` has an E-score of -0.22.
With `CAAAGTGA` the E-score was -0.0326.
`ATTTACGC` gave an E-score of 0.159.
`CCTCAACC` gave an E-score of -0.17.
With `GTGAGCGA` the E-score was -0.129.
The E-score of `GGCTCTGA` is reported as -0.108.
`AAATATCG` gave an E-score of 0.256.
With `TAATTGGA` the E-score was 0.206.
With `TCGTGACA` the E-score was 0.0341.
`AATCGGAT` gave an E-score of 0.0901.
`ATTTACAC` gave an E-score of 0.166.
For `TCCGAGGA`, the E-score was -0.308.
For `CCGAGGTC`, the E-score was -0.348.
`AGGCGACG` has an E-score of -0.186.
`CCCATAGG` has an E-score of -0.0378.
With `ATATTTAG` the E-score was 0.406.
The E-score of `TCCATCAA` is reported as 0.243.

Sample 3 — method: RNA Bind-n-Seq; form: RNA; matrix: in vitro; concentration: 365 nM; relative to: no-protein control; direction: higher = stronger binding
Target: RNA binding protein fox-1 homolog 2, RRM domain, GST-SBP tag (RBFOX2, Homo sapiens, UniProt O43251-10, residues 100-194)
Notes: natural RNA segment, single round, ends assumed
Construct (chain): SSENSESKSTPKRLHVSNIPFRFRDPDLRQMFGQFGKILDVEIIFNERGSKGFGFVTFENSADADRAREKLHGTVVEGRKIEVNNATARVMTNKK
`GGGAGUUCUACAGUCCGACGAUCCCUCCCCCAAGCCAACCACUUUCACCUGGGAUGACUUUCGAUUAUGCUUUGUUUUGGGGCUGUAUUUUUGAAAUACUCUACAAGAAAGCUGUGGCUCAACACAUGAGAAGUGGAAUUCUCGGGUGCCAA` — result for “RBNS enrichment (R)”: 0.358.
For `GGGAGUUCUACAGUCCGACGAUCACAGGAAAUAACACUUCAGGAGGAACUGAAACUAGCUAAGCCUUCCUUUUUAGCAAGUAAACCUUGAACUUGGUCAGUGUGGAUAUUUCUGCUAGGCUGACGACUAAGCUUGGAAUUCUCGGGUGCCAA`, “RBNS enrichment (R)” read 0.301.
For `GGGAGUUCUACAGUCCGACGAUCGGACCUGACCUGGCUCAUGAUGCCAAGAGGAAGACAGAGCUCUAGCCUCGUCUUCUCCUGCCCACAGCCCCUGCCAGAGUUCUUUUGCCCAGCAGAGGCACCCCUCAUGAUGGAAUUCUCGGGUGCCAA`, “RBNS enrichment (R)” read 0.349.
`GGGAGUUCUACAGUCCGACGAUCAAAAAAAAUCAUGUUUUAAAUGUUAUGAUUUUGUGUUAGGCUGAAUUUAUAGCUGUCCUUGACCUCGGGUUGGACACACCUGCAACAUGAAUAGUAAGACCUAAUAAUUCUGGAAUUCUCGGGUGCCAA` — result for “RBNS enrichment (R)”: 0.462.
Under “RBNS enrichment (R)”, `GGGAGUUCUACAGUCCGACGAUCCUUUCAAGGUCAGCUUCCCCAUAGCUCAGGUAUCCUUUGCUCUCCUGUAUCUUCAUUUACUAUUAGUGAAGAGAUCUCUGUCCUGGAGGUUAUUCUAAACUUUCUUUGUAUGGAAUUCUCGGGUGCCAA` is recorded as 0.275.
For `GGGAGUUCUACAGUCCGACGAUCAUUCUUGCCUAUUAACAUCUGAUGUAAGGCGCUCAUAUAGGCUGUGUGUACAAUCUUGGGCACUGAUUCCAUCAGUAGUAUCUUGUACCAUCCAAGGAGAGGGCCAGGAAUGGAAUUCUCGGGUGCCAA`, “RBNS enrichment (R)” read 0.255.
`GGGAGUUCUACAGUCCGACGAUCUUGAAAACAUUAUACUUGUAUCCAUUUUCCUCUGUUCAACAAAGAGAAAGUUCAAGUUAGCUUCAGUCCUUCAGUGAUAGGCAACCUAGGUUUUCUAGAGUUUAAUUCUUUGGAAUUCUCGGGUGCCAA` — result for “RBNS enrichment (R)”: 0.361.
`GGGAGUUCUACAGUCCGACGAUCCAGCUUCCUGGCUGGUACCCAUGAUAACAAUUGAGCUGAACCUGGGGACCCCUGGUUGGGGAACAGGUGAGUUCUAUUUGAGACUUCCAGCCCUAGAAAGCUGCCUCCGUUGGAAUUCUCGGGUGCCAA` — result for “RBNS enrichment (R)”: 0.355.
For `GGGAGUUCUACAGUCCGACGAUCACACAGUGGGUUUGGUUGUAAGGCAGAUGUAAUAGAUGACUUCAAAAGCCUGCUCCUUACUGCACUCUGGACAAGGCCCUGGUCUGUAUAGUUUGGCUUCCUCUGUUAAGUGGAAUUCUCGGGUGCCAA`, “RBNS enrichment (R)” read 0.457.

Sample 4 — method: competition protein-binding microarray; form: double-stranded DNA, one strand shown; matrix: in vitro; concentration: 2 µM; together with: Pho4 competitor, 0.05 µM; direction: higher = stronger binding
Target: Centromere-binding protein 1, full length, His-tagged (CBF1, Saccharomyces cerevisiae, UniProt P17106, residues 1-351)
Chain of UniProt P17106 (whole entry, looked up): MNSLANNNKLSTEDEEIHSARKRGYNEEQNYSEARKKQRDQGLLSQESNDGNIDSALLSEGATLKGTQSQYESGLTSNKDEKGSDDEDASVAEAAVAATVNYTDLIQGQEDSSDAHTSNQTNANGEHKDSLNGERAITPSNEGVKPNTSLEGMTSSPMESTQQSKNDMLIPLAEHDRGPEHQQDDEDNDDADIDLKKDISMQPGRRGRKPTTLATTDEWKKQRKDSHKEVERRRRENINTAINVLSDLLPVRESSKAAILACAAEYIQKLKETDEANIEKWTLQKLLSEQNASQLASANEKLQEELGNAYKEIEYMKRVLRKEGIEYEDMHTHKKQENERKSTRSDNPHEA
Notes: whole 60-bp probe, lowest competitor level
For `AGCAGAAGAAAACATACCGTGCGATATAGTACCTGGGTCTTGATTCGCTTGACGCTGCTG`, the fluorescence intensity was 74.9 a.u.
The fluorescence intensity of `AAAGCGGTAATTTGGCATGTGGGTGCAGATATCTATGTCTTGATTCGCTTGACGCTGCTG` is reported as 110 a.u.
The fluorescence intensity of `CTTTCCCGATCTTTTCACGTGTCATTAGCACATTTGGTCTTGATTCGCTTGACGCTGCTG` is reported as 1060 a.u.
With `GGGCACAAGGAAAAACACGTGACGAATTTCTTTTTTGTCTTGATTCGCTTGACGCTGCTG` the fluorescence intensity was 7570 a.u.
With `GTCTTGTCTCATTTTCACGTGCTTTTCCCCACTTCAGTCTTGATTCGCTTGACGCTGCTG` the fluorescence intensity was 976 a.u.
For `CTGTATACCTAATGAATCGTGGGTATTGTCTTCGTCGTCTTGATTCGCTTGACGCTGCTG`, the fluorescence intensity was 80.4 a.u.
`CGTCCTAGCGATTGACTTGTGGGTGCCATGAGGAAGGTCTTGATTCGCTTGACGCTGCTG` gave a fluorescence intensity of 69.6 a.u.
For `CTTTCCCGATCTTGTAGAGTGGGTGTAGCACATTTGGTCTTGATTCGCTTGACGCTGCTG`, the fluorescence intensity was 67.6 a.u.
For `TTTTATGCGATATTACATGTGTCAATAGCAAAAGGGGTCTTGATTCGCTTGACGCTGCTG`, the fluorescence intensity was 98.4 a.u.
`GCGTCCATGGGAGTGCTCCTGCAACGTACTTCATCTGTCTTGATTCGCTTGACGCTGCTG` gave a fluorescence intensity of 55.7 a.u.
For `TATTGGTTTTGGAAACACGTTTCGAATCTTCAGTATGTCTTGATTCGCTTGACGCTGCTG`, the fluorescence intensity was 141 a.u.
`CATACCCAACCTTGGCTTGTGGGTGAAGATATTTGTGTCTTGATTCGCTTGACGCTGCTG` gave a fluorescence intensity of 58.7 a.u.
`TATTTTACTATCTTACACGTGTTGGTAACATAAACGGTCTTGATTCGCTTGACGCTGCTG` gave a fluorescence intensity of 1530 a.u.
With `TAACATCGCATACATCATGTTTAGGAGGCTTGAACAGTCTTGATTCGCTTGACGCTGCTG` the fluorescence intensity was 76 a.u.
With `AAACATAGGACGGAACACGTGTGAAAGACAAATCTTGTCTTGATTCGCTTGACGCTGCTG` the fluorescence intensity was 1340 a.u.
With `TGCGCAACAACTTGGTCGGTGGGTGTATGTCTAGAAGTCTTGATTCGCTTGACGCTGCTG` the fluorescence intensity was 61.6 a.u.
`AAATTACTAAGTTGTCACCGTACTTACCCCGTATGAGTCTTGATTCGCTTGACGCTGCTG` has a fluorescence intensity of 79.4 a.u.
For `GCCTGTCCGTTGCTGCACATGCTTGCGTAGGGCCTTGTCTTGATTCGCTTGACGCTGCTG`, the fluorescence intensity was 87.7 a.u.
